Measured values gathered from unrelated publications.
Protocols differ between the studies behind these lines. Values joined by “and” are separate records of one study, mostly repeats; a detail may differ. Numbers after ± are the reported error.

CCN(CC)c1ccc2c(-c3ccccc3C(=O)OCCOCCOCC[18F])c3ccc(=[N+](CC)CC)cc-3oc2c1
tissue uptake (rat, lung; 60 min): 0.56 ± 0.05 %ID/g

Cn1c(=O)oc2ccc(-c3ccc(CC(C#N)NC(=O)C4CNCCCO4)c(F)c3)cc21 (centres unmarked)
half-life (human, plasma; once daily for 28 days, multiple ascending dose): ~26 h

CNc1cc(OC)c(Nc2nccc(-c3cn(C4CC4)c4ccccc34)n2)cc1NC(=O)CCSCC(NC(C)=O)C(=O)O (centres unmarked)
excreted amount (human, urine and feces; 0 to 96 h urine, 0 to 240 h feces; reference: dose): 6.83%

Cc1ccc(OCC(=O)O)cc1
Cmax (Sprague-Dawley rat, female, plasma; oral gavage, 30 mg/kg of parent drug): 9730 ± 4240 ng/mL

CC12CC(c3ccc(S(C)(=O)=O)cc3)C3=C4CCC(=O)C=C4CCC3C1CCC2(O)C(F)(F)C(F)(F)F (centres unmarked)
excreted amount in urine (human; oral, 5 mg, mean of six subjects; reference: dose): 0.1%

CN(C(=O)Cn1c(=O)oc2ccc(-c3ccc(OCC[18F])cc3)cc21)c1ccccc1
intact parent fraction (ischemic Sprague-Dawley rats, brain; intravenous, 10 MBq radiolabelled, 30 min): 83.2 ± 7.4%

CC12CC3CC(C)(C1)CC(NC(=O)Nc1ccc(C(=O)N4CCC[C@H](C(N)=O)C4)cc1F)(C3)C2
CL (Sprague Dawley rats, both sexes, plasma; oral, 50 mg/kg): 4070 mL/h

CC(C)C[C@@H](NC(=O)[C@H](NC(=O)[C@H]1CCCN1)[C@H](C)O)C(=O)N[C@H](Cc1c[nH]cn1)C(=O)N[C@@H](C(=O)N[C@H](Cc1c[nH]cn1)C(=O)N[C@H](CC(N)=O)C(=O)N[C@H](CCCNC(=N)N)C(=O)N[C@H](CCCNC(=N)N)C(=O)N[C@H](CCCNC(=N)N)C(=O)N[C@H](CCCNC(=N)N)C(=O)N[C@H](CCCNC(=N)N)C(N)=O)[C@H](C)O
MRT (beagle dog, plasma; oral, 50 mg/kg, single dose): 35 h

O=C(CCc1ccc(CNC(C(=O)OC2CCCC2)C2CCCCC2)cn1)NO (centres unmarked)
AUC(tau) (human, plasma; oral, 20 mg once daily, day 7, geometric mean): 98.8 ng·h/mL

CC(C)c1cnc(-c2cc(Cl)ccc2F)cc1Nc1ccncc1C(=O)NC(CO)CO
patients with treatment-related adverse event (monotherapy, refers to: headache; human patients; oral, dose not given, grade 1, phase I A): 11.9%

CC(CCCOC(=O)CCC[N+](C)(C)C)C1CCC2C3CCC4CC(OC(=O)CCC[N+](C)(C)C)CCC4(C)C3CCC12C (centres unmarked)
HC50 (mouse red blood cells; 1 h, 37 °C): 205 µg/mL

CC(C)[C@H](NC(=O)CNC(=O)[C@H](CCC(N)=O)NC(=O)[C@H](C)N)C(=O)O
volume of distribution (LC-MS/MS; human, male, plasma; intravenous, 30 mg/kg three times daily, day 1, first dose, 10 min infusion, geometric mean): 16 L/kg

CN[C@@H]1[C@H](O)[C@H](NC)[C@H]2O[C@]3(O)[C@H](O[C@@H]2[C@H]1O)O[C@H](C)C[C@@]3(O)CNCCC1CCOCC1
C0 (male BALB/c mouse, plasma; intravenous, 10 mg/kg): 38 to 74 µg/mL

CCCC[C@H](NC(=O)CNC(=O)CNC(=O)CN1CCN(CC(=O)O)CCN(CC(=O)O)CCN(CC(=O)O)CC1)C(=O)N[C@H]1CC(=O)NCCCC[C@@H](C(N)=O)NC(=O)[C@H](Cc2c[nH]c3ccccc23)NC(=O)[C@H](CCCNC(=N)N)NC(=O)[C@@H](Cc2ccccc2)NC(=O)[C@H](Cc2c[nH]cn2)NC1=O [copper-64 labelled]
uptake ratio (female C57 mouse, B16/F1 melanoma; intravenous, 0.037 MBq, 24 h; reference: tumour over lung): 1.34

COc1ccc(-c2csc(N/N=C(\C)c3cc(O)cc(O)c3)n2)cc1
concentration after storage (LC-MS/MS; rat plasma; 1000 ng/mL, 45 days, long-term storage at -70 °C): 965 ng/mL

Cc1ccc([C@@H]2O[C@H](CO)[C@@H](O)[C@H](O)[C@H]2O)cc1Cc1ccc(-c2ccc(F)cc2)s1
elimination rate constant (albino rabbit, plasma; oral or sublingual): 5.28e-06 ± 2.78e-07 s⁻¹

CC(C)(C)c1cc(-c2ccc3cccnc3n2)nc(-c2ccc3cccnc3n2)c1.COc1ccncc1.[Cl-].[Cl-].[Ru+2].c1ccc2cc3nc4c5cccnc5c5ncccc5c4nc3cc2c1
singlet oxygen quantum yield (1O2 phosphorescence; acetonitrile; excitation 753 nm; reference: Ru(bpy)3(PF6)2): 0.69

CC[C@@H](C)[C@@H](NC(=O)[C@@H](C)NC(=O)[C@@H](CCCCN)NC(=O)[C@@H](CC(C)C)NC(=O)[C@@H](C)NC(=O)[C@H](NC(=O)[C@@H](CCCCN)NC(=O)[C@@H](CC(C)C)NC(=O)[C@H](NC(=O)[C@@H](CCCCN)NC(=O)[C@@H](CCCCN)NC(=O)[C@@H](CCCCN)NC(=O)[C@@H](C)NC(=O)[C@@H](CCCCN)NC(=O)[C@@H](CO)NC(=O)[C@@H](Cc1ccccc1)NC(=O)[C@H](NC(=O)[C@@H](CCCCN)NC(=O)[C@@H](CC(C)C)NC(=O)[C@@H](Cc1ccccc1)NC(=O)[C@@H](CO)NC(=O)[C@@H](CCCCN)NC(=O)[C@@H](Cc1c[nH]c2ccccc12)NC(=O)[C@@H](CCCCN)NC(C)=O)[C@H](C)O)C(C)C)[C@H](C)O)C(=O)N[C@H](CO)C(=O)N[C@H](CCCCN)C(N)=O
helical content (circular dichroism; aqueous buffer; pH 7.0, 5 °C; reference: reference peptide in TFE): 2%

O=c1c2cc(-c3ccc(Cl)cc3)nc(-c3cccnc3)c2ncn1C1CCC(OP(=O)(O)O)CC1 (centres unmarked)
AUC(0-last) (ICR mice, male, plasma; oral, 300 mg/kg daily, day 1): 386 µg·h/mL

N=C(N)NCCC[C@@H]1NC(=O)[C@H](Cc2c[nH]c3ccccc23)NC(=O)[C@@H](CC2CCCCC2)NC(=O)[C@@H]2CCCN2C(=O)[C@@H](NC(=O)CCc2ccccc2)CCCNC1=O
elimination rate constant (C57BL/6J mice, brain; subcutaneous, 1 mg/kg, two-compartment model): 0.00035 s⁻¹

Cc1cc(O)c(C=O)c2c1C(=O)Oc1c(CO)c(O)c3c(c1O2)C(O)OC3=O (centres unmarked)
IC50 (protein glycation; bovine serum albumin; 6 days, with: D-fructose): 218 ± 7.25 nM

Cc1ccc(-c2ccc(-c3cc4sccc4o3)cn2)nc1
radiative decay rate constant (TCSPC; acetonitrile; zinc complex): 0.15 ns⁻¹

NC(=O)[C@@H](Cc1ccccc1)N[11C](=O)OCc1ccccc1
intact tracer (male Wistar rats, plasma; intravenous, 5 min): 79.6% and 80%

Nc1ncnc2c1nc(-n1nnc3c1CCC1C(CO)C1CC3)n2C1CC(O)C(CO)O1 (mixture of isomers)
fluorescence lifetime τ1 (frequency-domain fluorometry; methanol): 0.1 ns

CC(=O)[CH](C(C)=O)[Pt-2]1([S+](C)C)[O]C(C)=CC(C)=[O+]1 (centres unmarked)
total protein (rat, blood; intravenous, 10 mg/kg, single dose): 4.31 ± 8.5 g/dL

[11CH3]c1ccc2nc(C3CCC3)n(-c3ccc4[nH]ncc4c3)c2n1
intact parent fraction (radio-HPLC; Sprague-Dawley rat, plasma; 10 min): 55%

CC(C)[C@H](NC(=O)[C@@H]1CCCN1C(=O)[C@H](CCCNC(=N)N)NC(=O)[C@H](CS)NC(=O)[C@H](Cc1c[nH]c2ccccc12)NC(=O)[C@H](CCCNC(=N)N)NC(=O)[C@@H](Cc1ccccc1)NC(=O)[C@H](Cc1c[nH]cn1)NC(=O)[C@H](CCC(=O)O)NC(=O)[C@H](CS)NC(=O)[C@H](CS)NC(=O)[C@@H]1CC(=O)N[C@@H](CCCNC(=N)N)C(=O)NCC(=O)N[C@@H](CC(=O)O)C(=O)N[C@H](Cc2ccc(O)cc2)C(=O)N1)C(N)=O [technetium-99m labelled]
tumour to tissue ratio (C57 mouse, female, B16/F1 melanoma; intravenous, 0.037 MBq, 24 h; reference: tumour over liver): 8.83

COc1cccc(C=NCCCN(C)CCN(C)CCCN=Cc2cccc(OC)c2[O-])c1[O-].[67Ga+3]
tissue uptake ratio (rat; intravenous, 2 h; reference: heart over liver): 39 ± 3

COc1ccnc(C[S+]([O-])c2nc3cc(-n4cccc4)ccc3[nH]2)c1C (centres unmarked)
Vz/F ratio (male Sprague Dawley rats, plasma; oral, 10 mg/kg ilaprazole racemate; reference: compound over R-ilaprazole): 1.14

For quick reference, copied from above:
CC12CC(c3ccc(S(C)(=O)=O)cc3)C3=C4CCC(=O)C=C4CCC3C1CCC2(O)C(F)(F)C(F)(F)F (centres unmarked)
excreted amount in urine (human; oral, 5 mg, mean of six subjects; reference: dose): 0.1%

CC(C)[C@H](NC(=O)[C@@H]1CCCN1C(=O)[C@H](CCCNC(=N)N)NC(=O)[C@H](CS)NC(=O)[C@H](Cc1c[nH]c2ccccc12)NC(=O)[C@H](CCCNC(=N)N)NC(=O)[C@@H](Cc1ccccc1)NC(=O)[C@H](Cc1c[nH]cn1)NC(=O)[C@H](CCC(=O)O)NC(=O)[C@H](CS)NC(=O)[C@H](CS)NC(=O)[C@@H]1CC(=O)N[C@@H](CCCNC(=N)N)C(=O)NCC(=O)N[C@@H](CC(=O)O)C(=O)N[C@H](Cc2ccc(O)cc2)C(=O)N1)C(N)=O [technetium-99m labelled]
tumour to tissue ratio (C57 mouse, female, B16/F1 melanoma; intravenous, 0.037 MBq, 24 h; reference: tumour over liver): 8.83

CC(C)(C)c1cc(-c2ccc3cccnc3n2)nc(-c2ccc3cccnc3n2)c1.COc1ccncc1.[Cl-].[Cl-].[Ru+2].c1ccc2cc3nc4c5cccnc5c5ncccc5c4nc3cc2c1
singlet oxygen quantum yield (1O2 phosphorescence; acetonitrile; excitation 753 nm; reference: Ru(bpy)3(PF6)2): 0.69

NC(=O)[C@@H](Cc1ccccc1)N[11C](=O)OCc1ccccc1
intact tracer (male Wistar rats, plasma; intravenous, 5 min): 79.6% and 80%

CC[C@@H](C)[C@@H](NC(=O)[C@@H](C)NC(=O)[C@@H](CCCCN)NC(=O)[C@@H](CC(C)C)NC(=O)[C@@H](C)NC(=O)[C@H](NC(=O)[C@@H](CCCCN)NC(=O)[C@@H](CC(C)C)NC(=O)[C@H](NC(=O)[C@@H](CCCCN)NC(=O)[C@@H](CCCCN)NC(=O)[C@@H](CCCCN)NC(=O)[C@@H](C)NC(=O)[C@@H](CCCCN)NC(=O)[C@@H](CO)NC(=O)[C@@H](Cc1ccccc1)NC(=O)[C@H](NC(=O)[C@@H](CCCCN)NC(=O)[C@@H](CC(C)C)NC(=O)[C@@H](Cc1ccccc1)NC(=O)[C@@H](CO)NC(=O)[C@@H](CCCCN)NC(=O)[C@@H](Cc1c[nH]c2ccccc12)NC(=O)[C@@H](CCCCN)NC(C)=O)[C@H](C)O)C(C)C)[C@H](C)O)C(=O)N[C@H](CO)C(=O)N[C@H](CCCCN)C(N)=O
helical content (circular dichroism; aqueous buffer; pH 7.0, 5 °C; reference: reference peptide in TFE): 2%
